Published values of several laboratories.
Each line is one published result; not all experiments were run side by side. “And” joins repeats or separate records; there may be more than shown.
Target: Serine/threonine-protein kinase N2 (PKN2, Homo sapiens, UniProt Q16513)

Structure (SMILES)	assay	setting	how to read	endpoint	result
Nc1ncc(-c2cc(-c3cnn(CC(F)(F)F)c3)ncc2F)nc1C(=O)NC1CNCC(F)C1 (stereo not shown)	enzyme activity	1 µM	baseline: DMSO control	remaining activity	96.2%
C=CC(=O)N1Cc2nc(-c3cc(-c4cc(Cl)cnc4Cl)c(F)cc3F)n(-c3ccncn3)c2C1	cell-free assay, inhibitor	1 µM	–	inhibition	5%
CN1CCN(Cc2ccc(-c3ccc(CO[C@H]4CCC[C@@H]4NC(=O)c4cc(-c5cnn(C)c5)cnc4N)cc3)cc2)CC1	enzyme activity, inhibitor	0.1 µM	–	inhibition	20%
C=CC(=O)Nc1cccc(-c2cnc3[nH]cc(C(=O)NC(C)(C)C)c3n2)c1	enzyme activity, inhibitor	0.1 µM	–	inhibition	17%
Cc1cccc(-c2ccc3nc(NC(=O)C4CCCO4)nn3c2)c1 (stereo not shown)	enzyme activity, Dundee kinase panel	10 µM	–	remaining activity	84%
COCC12C(=O)NC3C4(C(OC)CC1O)C1CC5(O)C(OC)C(O)C(OC(C)=O)(C1C5OC(=O)c1ccccc1)C3(O)C(OC)C24 (stereo not shown)	kinase activity, inhibitor, ProQinase kinase profiling	25 µM	baseline: control	remaining activity	97% and 94%
Cc1cccc(O[C@H]2CCC[C@@H](C(C)CNCc3ccncc3)C2)c1 (relative stereo)	enzyme activity, inhibitor	1 µM	–	inhibition	1%
CCN1CCN(Cc2ccc(C(=O)Nc3ccc(C)c(NCc4cnc5[nH]ccc5c4OC)c3)cc2C(F)(F)F)CC1	binding, competition with immobilised ligand	1 µM	–	remaining binding	58%
COc1cc(Nc2nc(C)cc(-c3cnn4nc(OC)ccc34)n2)cc(C(F)(F)F)c1	inhibitor	1 µM	baseline: control	remaining activity	90%
CNC1C[S+]2CC[S+]3CC[S+](C1)[Ru-4]321([N]=C=S)[n]2c3ccc(OC)cc3c3c4c(c5cc(F)c[n+]1c5c32)C(=O)NC4=O (stereo not shown)	KinomeScan	0.1 µM	baseline: untreated	remaining binding	94%
Nc1ncc2c(n1)-c1c([nH]c3ccc(C4=CCOCC4)cc13)CCC2	binding, competition with immobilised ligand	1 µM	–	remaining binding	100%
C=CC(=O)N1CCCC(n2c(=O)c3ncccc3n(Cc3ccc(Oc4ccccc4)cc3)c2=O)C1 (stereo not shown)	cell-free assay, competition with immobilised ligand	1 µM	–	remaining binding	100%
O=c1c(-c2ccc(Cl)c(CN3CCOCC3)c2)coc2cc(O)ccc12	enzyme activity, inhibitor	1 µM	–	remaining activity	119%
Cc1cccc(-c2ccc3nc(NC(=O)C4CCCCC4)nn3c2)c1	enzyme activity, Dundee kinase panel	10 µM	–	remaining activity	98%
NC(=O)C[C@H]1CCc2sc3ncnc(O[C@H]4CC[C@H](N5CCOCC5)CC4)c3c21	enzyme activity, inhibitor	10 µM	–	inhibition	-7%
COc1ccc(NC(=O)Nc2ccc3c(c2)C(=O)N(C(C)CO)CC(C)C(CN(C)Cc2ccc4c(c2)OCO4)O3)cc1 (stereo not shown)	kinase activity	0.03 µM	baseline: control	remaining activity	95%
O=C(Cc1ccc(OCc2ccccc2)cc1)NC1(C(=O)O)CCN(C(=O)c2ccc(-c3cccc(Cl)c3)cc2)CC1	enzyme activity, inhibitor	10 µM	–	activity vs control	112%
CC(C)=CC1OC(C)(C)C2C=C3C(=O)C(Cl)=CC(O)C3C3C(O)C4OC4C(=O)C132 (stereo not shown)	cell-free assay, competition with immobilised ligand	10 µM	–	remaining binding	95%
O=C(Nc1ccc(Oc2ncnc3[nH]cc(-c4ccccc4)c23)c(F)c1)c1c2n(n(-c3cc(F)ccc3F)c1=O)CCCC2	enzyme activity, inhibitor	0.5 µM	–	inhibition	-4%

A few entries again:
Structure (SMILES)	assay	setting	how to read	endpoint	result
COCC12C(=O)NC3C4(C(OC)CC1O)C1CC5(O)C(OC)C(O)C(OC(C)=O)(C1C5OC(=O)c1ccccc1)C3(O)C(OC)C24 (stereo not shown)	kinase activity, inhibitor, ProQinase kinase profiling	25 µM	baseline: control	remaining activity	97% and 94%
Cc1cccc(O[C@H]2CCC[C@@H](C(C)CNCc3ccncc3)C2)c1 (relative stereo)	enzyme activity, inhibitor	1 µM	–	inhibition	1%
CCN1CCN(Cc2ccc(C(=O)Nc3ccc(C)c(NCc4cnc5[nH]ccc5c4OC)c3)cc2C(F)(F)F)CC1	binding, competition with immobilised ligand	1 µM	–	remaining binding	58%
